# Assay results from different studies.
# Protocols differ between the studies behind these lines. ± marks the error that the study gave.
SMILES,target or system,test,system,setting,scale,measurement,result
O=C(Nc1ccccc1Nc1ccccc1)c1cccnc1C(F)(F)F,Valsa mali,"mycelial growth, mycelial growth rate method",,50 mg/L,,inhibition,12.5%
CC[C@@H](C)[C@@H](NC(=O)[C@@H](C)N)C(=O)N[C@H](CCCCN)C(=O)N[C@@H](C(=O)N[C@H](CCCNC(=N)N)C(=O)N[C@H](CCCCN)C(=O)N[C@H](CC(C)C)C(=O)N[C@H](Cc1ccccc1)C(=O)N[C@H](CCCCN)C(=O)N[C@H](CCCCN)C(=O)N[C@H](CC(C)C)C(=O)N[C@H](CC(C)C)C(=O)N[C@H](CCCNC(=N)N)C(N)=O)[C@H](C)CC,Escherichia coli,checkerboard,ATCC 25922,"unit not given, together with: 10-N-nonyl acridine orange",lower = stronger synergy,FICI,0.375
CN[C@@H]1[C@H](O)[C@H](NC)[C@H]2O[C@]3(O)[C@H](O[C@@H]2[C@H]1O)O[C@H](C)C[C@@]3(O)CNCCc1ccccc1,Mycobacteroides abscessus,"LC-MS/MS, item: intracellular compound",ATCC 19977,"100 µM, 30 min",relative to: compound over spectinomycin,intracellular accumulation ratio,12 fold
CCOC(=O)C1=C(C)NC2=C(C(=O)CC(C)(C)C2)C1c1ccc(OCC(=O)NN=Cc2cccc([N+](=O)[O-])c2)cc1OCC(=O)NN=Cc1cccc([N+](=O)[O-])c1 (stereo not shown),Proteus vulgaris,,,"concentration not given, 24 h, 37 °C",,inhibition zone diameter,5.1 ± 0.6 mm
CCn1c(SCCCN2C(=O)c3ccccc3C2=O)nc2cc3ccccc3cc2c1=O,coxsackievirus B4,plaque,BGM,"concentration not given, non-toxic dose",,virus titre reduction,20 ± 3%
CO[C@H]1/C=C/O[C@@]2(C)Oc3c(C)c(O)c4c(c3C2=O)C2=NC3(CCN(CC(C)C)CC3)NC2=C(NC(=O)/C(C)=C\C=C\[C@H](C)[C@H](O)[C@@H](C)[C@@H](O)[C@@H](C)[C@H](OC(=O)c2ccccc2C(F)(F)F)[C@@H]1C)C4=O,Mycobacteroides abscessus,,ATCC 19977,,relative to: wild type over arr deletion,MIC ratio,0.8
CC1(CCCCCCCCCCCCOCCCOP(=O)(O)CO[C@H](CO)Cn2ccc(N)nc2=O)COC1,Murid betaherpesvirus 1,qPCR,"MEF, Smith",,relative to: CC50 over EC50,selectivity index,> 18
COc1cc(CNC(=O)C[C@H](C)CCC=C(C)C)ccc1OCc1cn(-c2cccc([N+](=O)[O-])c2)nn1,MDA-MB-435 melanoma cells,SRB,,"10 µM, 48 h",,growth percent,99.5%
CC1CCC2C1C1C(CCC23CCC2=C(O3)C(C)(C)C(=O)C(=C(O)C=Cc3ccccc3)C2=O)C1(C)C (stereo not shown),human respiratory syncytial virus,"viral replication, CPE reduction","HEp-2, A2",,,IC50,23.8 ± 1.25 µM
Brc1ccc(-c2c[nH]c(-c3ccccn3)n2)cc1,Schistosoma mansoni,,adult male worms,5 µM,,worm killing,0%
CC(C)C[C@H](NC(=O)[C@H](CO)NC(=O)[C@H](CCCNC(=N)N)NC(=O)[C@H](CC(=O)O)NC(=O)[C@H](CCC(=O)O)NC(=O)[C@H](C)NC(=O)[C@@H]1CCCN1C(=O)[C@H](C)NC(=O)[C@H](CCC(=O)O)NC(=O)[C@@H]1CCCN1C(=O)[C@@H]1CCCN1)C(N)=O,dopamine system,,"rhesus monkey, contralateral caudate nucleus","intranasal, dose not given, repeated dose escalation",relative to: vehicle,DOPAC level reduction,54%
COc1cc(CNC(=O)C[C@H](C)CCC=C(C)C)ccc1OCc1cn(-c2ccc([N+](=O)[O-])cc2)nn1,RXF 393,SRB,,"10 µM, 48 h",,growth percent,90.6%
Oc1c(Br)cc(Br)c2nc3c(C(F)(F)F)cc(C(F)(F)F)cc3nc12,Staphylococcus aureus,Calgary Biofilm Device,"MRSA 1, clinical isolate",,,MBC,0.59 µM
O=c1c2cc3ccccc3cc2nc(SCc2ccc(Cl)cc2)n1Cc1ccccc1,coxsackievirus B4,plaque,BGM,"concentration not given, non-toxic dose",,virus titre reduction,50 ± 2%
CCOC(=O)C1=C(C)NC2=C(C(=O)CC(C)(C)C2)C1c1ccc(OCC(=O)NN=Cc2cc(Br)c(O)c(Br)c2)cc1OCC(=O)NN=Cc1cc(Br)c(O)c(Br)c1 (stereo not shown),Priestia megaterium,,DSM 32,"concentration not given, 24 h, 37 °C",,inhibition zone diameter,10.6 ± 0.1 mm
COc1ccccc1-c1n[nH]c2nc(N[C@H]3CC[C@H](NS(=O)(=O)CC(C)C)CC3)ncc12,Leishmania donovani,,HRN CYP450-null mouse,dose not given,,parasite reduction,> 95%
Cc1ncc([N+](=O)[O-])n1CCOCc1nnc(SCC(=O)c2ccc(Cl)cc2)o1,Streptococcus pyogenes,,DMSO,"60 µg/mL, 24 h, 37 °C",,inhibition zone diameter,15 to 20 mm
Cc1cc(N2CCC(C#N)(C3(C)CC3)C2=O)cc(C(=O)NCc2cc(F)cc(-c3cnn(C)c3)c2)n1 (racemic),Plasmodium falciparum,,"Pf3D70087/N9, humanized SCID mouse","oral, 50 mg/kg, day 7 postinfection, 4-day treatment once daily",relative to: untreated mice,parasitemia reduction,99.8%
CC[C@H]1[C@@H](O)[C@@H]2[C@H](CC[C@]3(C)[C@@H]([C@H](C)CCOS(=O)(=O)[O-])CC[C@@H]23)[C@@]2(C)CC[C@@H](O)C[C@@H]12.[Na+],,histology,"ob/ob NASH mouse model, liver","oral, 3 mg/kg once daily, 8 weeks, scale 0 to 3",direction not given,steatosis score,3
CCC(=O)N(C)c1ccc(Cl)c(Cl)c1,"CAR3 constitutive androstane receptor, human","reporter gene, agonist",,10 µM,relative to: vehicle,fold activation,0.69 fold
CCCCCCSC[C@H]1CN(Cc2c[nH]c3c(N)ncnc23)C[C@@H]1O,Helicobacter pylori,growth,horse blood agar,,,IC90,~10 ng/mL
CC(C)(C)NCC(SS(=O)(=O)O)c1ccccc1 (stereo not shown),Schistosoma mansoni,,mice,"oral, 200 mg/kg once daily for 4 days, from 7 days post infection",,male worm burden reduction,80%
O=c1c(-c2nc3ccccc3s2)cc2c(n1NS(=O)(=O)c1ccc(Cl)cc1)CCCCCC2,Human mastadenovirus B,"viral replication, plaque reduction","HEp-2 cells, type 7",non-toxic concentration,,reduction,20%
COc1ccc(-n2c(SCCN(C)C)nnc2[C@H](Cc2ccccc2)NC(=O)Cc2c(C)[nH]c3ccccc23)cc1,HIV-2,"HIV-2-induced cytopathicity, MTT","MT-4, wild type",,,EC50,> 22.9 µM
CCCCSC[C@H]1CN(Cc2c[nH]c3c(N)ncnc23)C[C@@H]1O,Helicobacter pylori,growth,horse blood agar,,,IC90,~10 ng/mL
CN[C@H](CC(C)C)C(=O)N[C@H]1C(=O)N[C@@H](CC(N)=O)C(=O)N[C@H]2C(=O)N[C@H]3C(=O)N[C@H](C(=O)N[C@H](C(=O)O)c4cc(O)cc(O)c4-c4cc3ccc4O)[C@H](O)c3ccc(c(Cl)c3)Oc3cc2cc(c3O[C@@H]2O[C@H](CO)[C@@H](O)[C@H](O)[C@H]2O[C@H]2C[C@](C)(NCc3ccc(C(=O)OCCCCCCN(Cc4ccccn4)Cc4ccccn4)cc3)[C@H](O)[C@H](C)O2)Oc2ccc(cc2Cl)[C@H]1O,Bacillus subtilis,"protein synthesis, item: YtrE.1",168,"concentration not given, 10 min, at peak effective concentration",relative to: untreated,regulation factor,140 ± 40.5
CC(=O)N[C@H](CCCCN)C(=O)N[C@H](CC(C)C)C(=O)N[C@H](CCCCN)C(=O)N[C@H](CO)C(=O)N[C@H](CC(C)C)C(=O)N[C@H](CC(C)C)C(=O)N[C@H](CCCCN)C(=O)N[C@@H](C(=O)N[C@H](CC(C)C)C(=O)N[C@H](CO)C(=O)N[C@H](CCCCN)C(=O)N[C@H](C)C(=O)N[C@H](CCCCN)C(=O)N[C@H](CCCCN)C(=O)N[C@H](CCCCN)C(=O)N[C@H](CC(C)C)C(=O)N[C@H](CC(C)C)C(=O)N[C@H](CCCCN)C(=O)N[C@@H](C(=O)N[C@H](C)C(=O)N[C@H](CC(C)C)C(=O)N[C@H](CCCCN)C(=O)N[C@H](C)C(=O)N[C@H](CC(C)C)C(=O)N[C@H](CO)C(=O)N[C@H](CCCCN)C(N)=O)[C@H](C)O)[C@H](C)O,Acinetobacter baumannii,,11 isolates,,,MIC geometric mean,0.5 µM
COc1ccc(-n2c(SCCF)nnc2[C@H](Cc2ccccc2)NC(=O)Cc2c(C)[nH]c3ccccc23)cc1,HIV-2,,"MT-4, wild type",,relative to: CC50 over EC50,selectivity index,6
"C=C1NC(=O)c2csc(n2)C2=NC3c4csc(n4)C4NC(=O)c5csc(n5)C(C(C)(O)C(C)O)NC(=O)C5CSC(=N5)C(=CC)NC(=O)C(C(C)O)NC(=O)c5csc(n5)C3(CC2)NC(=O)C(CSCC(C(N)=O)NC1=O)NC(=O)C(=C)NC(=O)C(C)NC(=O)C(C(C)CC)NC1C=Cc2c(C(C)O)cc(nc2C1O)C(=O)OC4C (single isomer, unassigned)","Staphylococcus aureus, Bacillus, Enterococcus faecium",,,three strains combined,relative to: thiostrepton A,fold increase in MIC,≤ 300 fold
[64Cu+2].c1cnc(CNCc2ccc(CN3CCCN4CCNCCCN(CC4)CC3)cc2)nc1,CXCR4,,"NOD/SCID mouse, U87 and U87-stb-CXCR4 xenografts, stomach","iv, 90 min, no blocking dose, ex vivo",,tissue uptake,1.04 ± 0.12 %ID/g
C=C1CC(OC(=O)C(C)(O)CCl)C2C(=C)C(=O)OC2C2C1CC(O)C2(O)CCl (stereo not shown),Proteus vulgaris,,,concentration not given,,inhibition zone,8 ± 1.1 mm
COc1ccccc1C(=O)O[C@H]1[C@H](C)[C@H](O)[C@H](C)[C@@H](O)[C@@H](C)/C=C/C=C(/C)C(=O)NC2=C3NC4(CCN(CC(C)C)CC4)N=C3c3c(c(O)c(C)c4c3C(=O)[C@@](C)(O/C=C/[C@H](OC)[C@H]1C)O4)C2=O,Mycobacteroides abscessus,,ATCC 19977,,relative to: wild type over arr deletion,MIC ratio,1
Nc1ccn(C[C@@H](CO)OCP(=O)(O)OCCCS(=O)(=O)CCCCCCCCCCC2CCC2)c(=O)n1,human gammaherpesvirus 8,qPCR,BCBL-1,,relative to: CC50 over EC50,selectivity index,51
CNCc1ccc2c(c1)N(C(=O)OC)[C@H](CNC(=N)N)[C@H]2NC(=O)C(=O)Nc1ccc(Cl)c(F)c1,HIV-1 JR-FL pseudovirus,viral infection,Cf2Th-CD4/CCR5 cells,,relative to: BNM-III-170,potency fold increase,2.5 fold
